Assay results gathered from unrelated publications.
Parts stem from different laboratories: compare values within a part only. Substitutions count along the parent as printed.

Series 1 — method: RNA Bind-n-Seq; molecule type: RNA; sample: in vitro; tested at: 200 nM; notes: whole 134-nt RNA, ends assumed; added: 150 mM KCl; reference: input library; direction: higher = stronger binding
Target: Ras GTPase-activating protein-binding protein 1, full length (G3BP1, Homo sapiens, UniProt Q13283)
Chain of UniProt Q13283 (whole entry, looked up): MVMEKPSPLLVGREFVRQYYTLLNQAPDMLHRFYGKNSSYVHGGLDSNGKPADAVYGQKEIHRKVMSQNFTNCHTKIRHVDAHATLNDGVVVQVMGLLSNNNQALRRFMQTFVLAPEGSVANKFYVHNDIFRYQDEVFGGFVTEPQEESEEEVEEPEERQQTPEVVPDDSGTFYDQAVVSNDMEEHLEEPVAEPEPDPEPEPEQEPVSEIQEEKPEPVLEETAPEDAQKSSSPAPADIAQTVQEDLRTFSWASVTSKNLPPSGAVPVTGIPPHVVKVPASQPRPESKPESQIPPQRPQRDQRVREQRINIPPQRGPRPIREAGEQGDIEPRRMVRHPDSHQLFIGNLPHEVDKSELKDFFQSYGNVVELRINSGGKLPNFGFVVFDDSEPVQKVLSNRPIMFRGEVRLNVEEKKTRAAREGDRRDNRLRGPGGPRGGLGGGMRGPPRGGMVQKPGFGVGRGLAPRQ
All sequences stand within: GGGAGUUCUACAGUCCGACGAUC … UGGAAUUCUCGGGUGUCAAGG
| Sequence | log2 enrichment |
| --- | --- |
| CACAGACAACACGCACCCACACAGACACAGAGGGAAGGGGUUGGGAUGGGCACAGGGUGCACAGCAGGGCGGGGUAGGACCCCAGCCCCU | 1.93 |
| ACCAUGCAGGUGGGCAUCUUUGGGAAGUGGGGCAAGGGGGGGAUAGGGAGGGGUGUAACACUUUGGGAACAGGUGGUCCCAGGUCGUUUC | 1.23 |
| GCAGGAAGUAAAAACAAAUGGAAAUGCUUCGGAUAGUGGCAGGGGUGGGGGUUGCUAAGGAAAGGGUGGGAUUGGAGUGGGUAAAGAGUU | 0.769 |
| UAACUUUAGAGGAGGAUCUGAUGGAUAUGGCAGUGGACGUGGAUUUGGGGAUGGCUAUAAUGGGUAUAGAGGAGGACCUGGAGGUGGCAA | 0.215 |
| CAAGUCCUGUGCUACACAUCGUAUGUACCGAAUCGGGAGGGAAAGGGUUUUUGGGAAAGUAUUAUGUUACGCCGUUCGGAUCUGCACUUC | 0.475 |
| AAGUCCUGUGCUACACAUCGUAUGUACCGAAUCGGGGAAAGGGGAAAGGGGAAAGGAAAGUAUUAUGUUACGCCGUUCGGAUCUGCACUU | -0.107 |
| UGGGAGGUGGAUUUUGUUUAUUUUUUUAGCUCAUUUCCAGGGGUGGGAAUUUUUUUUUAAUAUGCGUCAUGAAUAAAGUUGUUUUUGAAA | 0.0332 |

Series 2 — target: CCNB2, cyclin fold, Cln2 fusion (human); method: yeast growth competition, sequencing; sample: yeast; notes: weak parent motif; reference: not given; direction: higher = stronger binding
Starting sequence: NPAT docking peptide (human); PCHRRVLCFDSTT; partner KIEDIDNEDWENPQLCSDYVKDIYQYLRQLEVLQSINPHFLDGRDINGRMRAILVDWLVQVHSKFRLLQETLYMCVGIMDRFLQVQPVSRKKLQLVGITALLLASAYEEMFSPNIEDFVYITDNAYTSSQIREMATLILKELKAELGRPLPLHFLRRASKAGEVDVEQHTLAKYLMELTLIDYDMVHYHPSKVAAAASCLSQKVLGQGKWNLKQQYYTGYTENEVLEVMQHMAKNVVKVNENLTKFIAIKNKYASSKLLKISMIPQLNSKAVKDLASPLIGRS
| Change | normalised enrichment score |
| --- | --- |
| S11A | 0.323 |
| R4A | 0.214 |
| H3A | 0.0954 |
| C2A | 0.355 |
| R5K | 0.418 |
| R5A L7A | -0.207 |
| F9A | 0.204 |
| C8A | 0.257 |
| R5K F9L | 0.368 |

Series 3 — method: protein binding microarray; molecule type: double-stranded DNA, one strand shown; sample: in vitro; tested at: not given; reference: not given; direction: higher = stronger binding
Target: Histone acetyltransferase KAT6A, winged helix 2, GST fusion (KAT6A, Homo sapiens, UniProt Q92794, residues 85-181)
Notes: 8-mer, flanks averaged, mean of 2 arrays, mostly near background
Target sequence (chain): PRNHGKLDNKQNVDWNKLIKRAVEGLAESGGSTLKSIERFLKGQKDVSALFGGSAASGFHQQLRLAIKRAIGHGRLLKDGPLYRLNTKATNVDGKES
| Sequence | E-score |
| --- | --- |
| AGTTTCAG | -0.0702 |
| AGTGGGCC | -0.0833 |
| ACAACTCT | -0.0195 |
| ATACCAGA | -0.0725 |
| AAGCGATG | 0.00981 |
| CTAAGGGC | -0.0165 |
| TCATTAAA | 0.247 |
| CTATTAAC | -0.0574 |
| TAACCCTA | -0.163 |
| ACTCTTTA | -0.111 |
| ACCGTAAC | -0.0833 |
| ACCGTACT | -0.175 |
| TTAAAAAA | 0.174 |
| AGTACAAT | -0.0609 |
| ACTCGGGC | 0.0571 |
| AGGGATCA | -0.102 |
| CAATCCCC | -0.0782 |
| GGGAAGAC | 0.012 |
| CTCATCAG | 0.0815 |
| CTATCGAG | 0.0406 |
| CTTATGCA | 0.0435 |
| CAGCGCTC | 0.00041 |
| ACTCAATA | 0.0405 |
| AACGTCCG | -0.183 |
| GAATACTA | 0.0619 |

Series 4 — method: RNA Bind-n-Seq; molecule type: RNA; sample: in vitro; tested at: 365 nM; reference: no-protein control; direction: higher = stronger binding
Target: RNA binding protein fox-1 homolog 2, RRM domain, GST-SBP tag (RBFOX2, Homo sapiens, UniProt O43251-10, residues 100-194)
Notes: natural RNA segment, single round, ends assumed
All sequences stand within: GGGAGUUCUACAGUCCGACGAUC … UGGAAUUCUCGGGUGCCAA
Construct (chain): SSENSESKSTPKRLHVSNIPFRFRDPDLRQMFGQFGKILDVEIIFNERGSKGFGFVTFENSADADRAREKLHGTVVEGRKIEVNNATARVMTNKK
| Sequence | RBNS enrichment (R) |
| --- | --- |
| UGAUGGCUGGGGUCCCCCAUCUGCUAUGCGUACUUCACUGACCUAUAAACACUAAGAUGGGGUGCAAGGGCCCAGCCCCAGCUCCACAGCCCCCAUAUGCACCCACCCUG | 0.916 |
| CUCAGUGAGUUGUAUAUUUAUACACCUGGCUUGAAGCCUUAAUUGUAUAUAAUGAUGCUUUUUAAAAAAUGCUAUUUGGAAGACUAUUUAUUUCUCGUGUAUAUAAUGUA | 0.5 |
| GCGAAACAGUGUAACAUUAUUCUGUGUUCUUUAUUAGCUAACUACAAGUGUAUGCUUUCCACUCUGGUUGAUCAUUAGUUCCCUAGUACAUACUUAAAAGUUUACCAAAU | 0.726 |
| CUCUGCUAAGGUUCCUUCCCUUUGUCUCUGGAAACCCAACCCCACAAGGACAGAGUGGUGAGAACUCCUUCCUGGGAGGAGAUAAGGAGAUAUAAACCUUUAAAUAAAGU | 0.439 |
| GGGAAUGGUGUUAAAAAAGAAAAAAAGACAGAAAAGGCCUUAUGUGAUAUGUAUCAUAGUUAAUAAAUCAAUCUUGUAAAAAAAAAAACCAUAAAUAAAAACAGGCCUGA | 0.957 |
| CGCAUGCCUUUAAUCCCAGCACUCGGGAGGCAGAGGCAGGCGGAUUUUUGAGUUCAAGGGCAGCCUGGUCUACAAAGUGAGUUCCAGGACAGCCAGGGCUACACAGAGGA | 0.337 |
| UUUUUGUUGGUUUAUUAUAAAUUAUUCUUCUAGAUGCAUCUUUUAUAACUAGGAUUUCAUUUUGUGUGUAUAGCUUAUGUAAUAAAUUUUAAAGGUGAAAACUCUCUUAA | 0.698 |
| CACAAGGUCAGGAGAUCAAGACCAUCCUGGCUAACACGGUGAAACCCUGUCUCUACUAAAAAUACAAAAAUUAGCCGGGCGUGGUGGCGGGCGCCUGUAGUCCCAGCUAC | 0.345 |

Series 5 — method: protein-binding microarray; molecule type: double-stranded DNA, one strand shown; sample: in vitro; tested at: not given; direction: higher = stronger binding
Target: Protein max, full length (MAX, Homo sapiens, UniProt P61244-2, residues 1-151)
Notes: k-mer, scored over probes, only values ≥0.25
| Sequence | E-score |
| --- | --- |
| CATGTGGA | 0.471 |
| CGTGGACA | 0.378 |
| AGGCGCAC | 0.28 |
| AGTATGGC | 0.261 |
| CCACGGGA | 0.307 |
| AGGTGTGC | 0.328 |
| GCACACGA | 0.308 |
| CCACGGGG | 0.386 |
| CATGACAC | 0.357 |
| CCCATGCC | 0.371 |
| ACACATGG | 0.477 |
| CATGTTTC | 0.322 |
| ACCATGCC | 0.375 |
| CGTGTGGA | 0.306 |
| ATGCGTTC | 0.356 |
| CGTGATAG | 0.328 |
| CCTCGCAC | 0.254 |
| CATGTTAC | 0.327 |

Some of these lines once more (series 3):
| Sequence | E-score |
| --- | --- |
| CTCATCAG | 0.0815 |
| CTAAGGGC | -0.0165 |
| CTTATGCA | 0.0435 |
| AAGCGATG | 0.00981 |
| ACAACTCT | -0.0195 |
| TCATTAAA | 0.247 |
| ACCGTACT | -0.175 |
| ACTCTTTA | -0.111 |
| ACCGTAAC | -0.0833 |
| ATACCAGA | -0.0725 |
